Values quoted from earlier work as cited in several papers.
Compare with care: the assays were run in different laboratories. ± gives the spread as reported.
EGFR: Epidermal growth factor receptor (EGFR, Homo sapiens, UniProt P00533)
Sequence of UniProt P09470 (whole entry, looked up): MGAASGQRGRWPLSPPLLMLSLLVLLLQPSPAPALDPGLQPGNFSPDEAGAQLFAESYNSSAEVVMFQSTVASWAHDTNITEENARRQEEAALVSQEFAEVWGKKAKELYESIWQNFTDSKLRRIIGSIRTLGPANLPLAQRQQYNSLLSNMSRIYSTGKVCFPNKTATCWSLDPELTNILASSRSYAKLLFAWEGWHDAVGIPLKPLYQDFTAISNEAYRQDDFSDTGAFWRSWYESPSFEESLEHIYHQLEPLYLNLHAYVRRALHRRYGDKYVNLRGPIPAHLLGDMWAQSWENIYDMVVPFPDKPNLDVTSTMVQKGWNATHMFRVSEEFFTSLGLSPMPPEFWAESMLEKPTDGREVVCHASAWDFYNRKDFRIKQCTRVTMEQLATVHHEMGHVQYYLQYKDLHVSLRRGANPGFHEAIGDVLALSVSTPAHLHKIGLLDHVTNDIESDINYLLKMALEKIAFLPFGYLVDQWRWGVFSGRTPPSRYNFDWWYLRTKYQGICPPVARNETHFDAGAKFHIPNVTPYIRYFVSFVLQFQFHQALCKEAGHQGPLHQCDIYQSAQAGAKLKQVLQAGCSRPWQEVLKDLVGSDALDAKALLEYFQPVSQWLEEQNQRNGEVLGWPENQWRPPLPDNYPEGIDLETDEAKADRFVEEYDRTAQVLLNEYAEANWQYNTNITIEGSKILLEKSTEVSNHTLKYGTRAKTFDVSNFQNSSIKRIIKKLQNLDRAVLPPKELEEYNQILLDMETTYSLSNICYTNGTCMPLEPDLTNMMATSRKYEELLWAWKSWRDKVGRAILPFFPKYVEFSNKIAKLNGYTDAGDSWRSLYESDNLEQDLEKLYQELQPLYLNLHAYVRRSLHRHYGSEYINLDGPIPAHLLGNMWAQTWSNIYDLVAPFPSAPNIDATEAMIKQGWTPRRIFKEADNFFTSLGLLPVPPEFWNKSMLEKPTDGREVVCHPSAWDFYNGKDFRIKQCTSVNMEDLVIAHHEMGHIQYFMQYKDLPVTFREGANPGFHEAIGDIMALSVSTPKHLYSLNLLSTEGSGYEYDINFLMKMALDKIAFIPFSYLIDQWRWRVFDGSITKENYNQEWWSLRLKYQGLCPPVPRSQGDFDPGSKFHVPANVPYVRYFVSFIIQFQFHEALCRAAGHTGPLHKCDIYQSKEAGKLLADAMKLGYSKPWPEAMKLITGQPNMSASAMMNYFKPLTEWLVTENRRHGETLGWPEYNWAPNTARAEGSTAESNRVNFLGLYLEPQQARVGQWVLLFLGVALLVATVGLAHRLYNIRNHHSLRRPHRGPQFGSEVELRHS
Sequence of UniProt P01024 (whole entry, unmodified, looked up): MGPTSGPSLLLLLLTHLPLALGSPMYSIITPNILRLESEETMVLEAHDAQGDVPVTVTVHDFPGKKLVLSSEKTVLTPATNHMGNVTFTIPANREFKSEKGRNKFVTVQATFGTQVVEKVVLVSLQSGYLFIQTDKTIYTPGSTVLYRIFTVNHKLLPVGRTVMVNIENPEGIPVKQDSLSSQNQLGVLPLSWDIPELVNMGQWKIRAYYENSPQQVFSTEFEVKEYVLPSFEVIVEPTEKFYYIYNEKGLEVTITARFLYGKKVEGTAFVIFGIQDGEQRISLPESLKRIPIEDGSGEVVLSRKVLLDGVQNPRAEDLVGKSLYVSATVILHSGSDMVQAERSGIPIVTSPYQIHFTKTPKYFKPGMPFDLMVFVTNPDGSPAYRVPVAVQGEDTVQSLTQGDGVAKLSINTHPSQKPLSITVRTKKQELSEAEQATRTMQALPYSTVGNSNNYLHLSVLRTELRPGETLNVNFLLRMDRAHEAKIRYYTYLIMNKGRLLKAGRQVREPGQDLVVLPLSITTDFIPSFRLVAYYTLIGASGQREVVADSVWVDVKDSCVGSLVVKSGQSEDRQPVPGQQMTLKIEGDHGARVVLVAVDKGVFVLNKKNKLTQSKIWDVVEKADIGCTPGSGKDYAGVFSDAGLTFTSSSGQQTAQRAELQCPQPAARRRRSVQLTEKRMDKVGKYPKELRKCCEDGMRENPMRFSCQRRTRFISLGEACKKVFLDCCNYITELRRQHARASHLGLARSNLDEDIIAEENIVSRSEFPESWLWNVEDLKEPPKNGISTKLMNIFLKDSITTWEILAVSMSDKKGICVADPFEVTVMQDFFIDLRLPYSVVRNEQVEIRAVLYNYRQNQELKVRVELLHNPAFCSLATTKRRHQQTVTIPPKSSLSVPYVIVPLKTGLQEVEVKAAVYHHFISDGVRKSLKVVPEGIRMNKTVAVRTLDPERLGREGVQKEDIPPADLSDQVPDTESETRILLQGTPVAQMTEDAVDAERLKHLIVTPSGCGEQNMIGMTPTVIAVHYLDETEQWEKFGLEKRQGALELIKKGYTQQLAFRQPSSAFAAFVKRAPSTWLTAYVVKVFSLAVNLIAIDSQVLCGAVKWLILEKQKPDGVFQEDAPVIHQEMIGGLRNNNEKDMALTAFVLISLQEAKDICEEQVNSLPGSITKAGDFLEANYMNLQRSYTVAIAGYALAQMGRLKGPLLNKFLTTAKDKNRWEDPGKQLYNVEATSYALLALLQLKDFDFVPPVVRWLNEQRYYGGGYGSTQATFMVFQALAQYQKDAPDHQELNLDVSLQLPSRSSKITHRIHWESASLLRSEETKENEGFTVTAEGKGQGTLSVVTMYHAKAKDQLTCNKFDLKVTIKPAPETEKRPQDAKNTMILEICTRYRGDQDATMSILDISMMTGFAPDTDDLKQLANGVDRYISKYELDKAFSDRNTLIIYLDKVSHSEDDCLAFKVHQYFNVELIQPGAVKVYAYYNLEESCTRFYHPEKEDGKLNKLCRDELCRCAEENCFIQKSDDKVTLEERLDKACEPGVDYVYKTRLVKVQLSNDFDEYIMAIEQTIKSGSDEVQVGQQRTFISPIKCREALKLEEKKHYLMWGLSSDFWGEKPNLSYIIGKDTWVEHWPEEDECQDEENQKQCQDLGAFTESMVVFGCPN
Sequence of UniProt P41143 (whole entry, looked up): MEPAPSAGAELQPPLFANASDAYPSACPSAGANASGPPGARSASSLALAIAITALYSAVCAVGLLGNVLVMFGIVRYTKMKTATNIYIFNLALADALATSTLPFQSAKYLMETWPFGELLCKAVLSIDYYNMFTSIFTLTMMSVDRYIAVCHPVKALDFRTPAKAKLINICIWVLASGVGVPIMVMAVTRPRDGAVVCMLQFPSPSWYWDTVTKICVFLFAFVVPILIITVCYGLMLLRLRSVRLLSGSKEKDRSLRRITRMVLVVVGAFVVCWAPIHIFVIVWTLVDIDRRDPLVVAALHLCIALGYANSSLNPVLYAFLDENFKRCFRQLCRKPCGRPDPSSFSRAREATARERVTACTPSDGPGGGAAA
Sequence of UniProt P62813 (whole entry, looked up): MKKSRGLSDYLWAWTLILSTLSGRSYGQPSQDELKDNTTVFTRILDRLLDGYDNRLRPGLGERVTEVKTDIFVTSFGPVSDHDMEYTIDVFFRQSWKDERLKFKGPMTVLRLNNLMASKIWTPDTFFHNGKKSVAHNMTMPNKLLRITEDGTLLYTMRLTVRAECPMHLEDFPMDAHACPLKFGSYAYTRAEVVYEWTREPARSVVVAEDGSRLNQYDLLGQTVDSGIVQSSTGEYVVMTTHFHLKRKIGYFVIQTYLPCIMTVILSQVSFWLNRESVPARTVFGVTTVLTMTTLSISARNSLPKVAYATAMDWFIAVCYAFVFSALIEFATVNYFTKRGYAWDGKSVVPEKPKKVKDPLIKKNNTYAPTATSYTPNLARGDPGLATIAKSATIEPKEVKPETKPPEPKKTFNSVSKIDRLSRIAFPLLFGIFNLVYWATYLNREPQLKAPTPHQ

| Structure (SMILES) | target | test | system | setting | how to read | endpoint | value |
| --- | --- | --- | --- | --- | --- | --- | --- |
| CC(=O)c1c(O)cccc1OCc1cccc(Br)c1 | MAOB (Homo sapiens, UniProt P27338) | – | – | – | reference: IC50 MAO-A over IC50 MAO-B | selectivity ratio | 17 |
| O=c1[nH]c(SC[C@H](O)[C@H](O)[C@H](O)CO)c([N+](=O)[O-])c(=O)[nH]1 | 6,7-dimethyl-8-ribityllumazine synthase (rib4, Schizosaccharomyces pombe, UniProt Q9UUB1) | enzyme kinetics | – | pH 7.0 | lower = tighter substrate binding | Ks | 2.3 ± 0.2 µM |
| CO[C@@H]1[C@H](O)[C@@H](COP(=O)(O)OP(=O)([O-])OP(=O)(O)OP(=O)(O)OC[C@H]2O[C@@H](n3cnc4c(=O)[nH]c(N)nc43)[C@H](O)[C@@H]2O)O[C@H]1n1c[n+](C)c2c(O)nc(N)nc21 | Eukaryotic translation initiation factor 4E, residues 28-217 (Eif4e, Mus musculus, UniProt P63073) | binding, fluorescence quenching titration | – | pH 7.2 | – | association constant | 99.8 µM⁻¹ |
| CCCCN(CCc1ccccc1)CCc1cccc(O)c1 | OPRD1 (Homo sapiens, UniProt P41143) | – | – | – | reference: KOR over OPRD1 | selectivity ratio | > 200 fold |
| N=C(CF)NCCC[C@H](NC(=O)c1ccc(-c2ccccc2)cc1)c1nc2ccccc2[nH]1 | PADI4 (Homo sapiens, UniProt Q9UM07) | inhibitor | – | – | – | kinact/KI | 3750 M⁻¹ min⁻¹ |
| CCOC(=O)C(CC)NC(=O)CN1C(=O)S/C(=C\c2ccc([N+](=O)[O-])cc2)C1=O (stereo not shown) | α-glucosidase | enzyme activity | – | 100 µM | – | inhibition | 0% |
| Nc1c(SC[C@H](O)[C@H](O)[C@H](O)CO)[nH]c(=O)[nH]c1=O | ribH (Mycobacterium tuberculosis, UniProt P9WHE9) | enzyme kinetics | – | pH 7.0, together with: substrate 2 fixed, 1 varied | lower = tighter substrate binding | Ks | 30 ± 4 µM |
| COc1ccc(-n2nc3c4cc(Cl)ccc4[nH]cc-3c2=O)cc1 | Gamma-aminobutyric acid receptor subunit alpha-1/beta-3 (Gabra1/Gabrb3, Rattus norvegicus, UniProt P62813+P63079) | ion current, modulator | – | α1β3γ2, together with: GABA EC3-5 | – | maximum modulation | ~1000% |
| CC[C@H](C)[C@H](NC(C)=O)C(=O)N[C@H]1CSSC[C@@H](C(=O)N[C@H](C(N)=O)[C@@H](C)O)NC(=O)[C@H](CCCNC(=N)N)NC(=O)[C@H](Cc2c[nH]cn2)NC(=O)[C@H](C)NC(=O)CNC(=O)[C@H](Cc2c[nH]c3ccccc23)NC(=O)[C@H](CC(=O)O)NC(=O)[C@H](CCC(N)=O)NC(=O)[C@H](Cc2ccc3ccccc3c2)NC(=O)[C@H](C(C)C)NC1=O | Complement C3 (Homo sapiens, UniProt P01024) | binding, ITC | – | – | – | ΔG | -9.5 kcal/mol |
| OC[C@H]1O[C@@H](OCc2cn([C@H]3[C@H](O)[C@@H](O)[C@H](c4cn([C@H]5[C@H](O)[C@@H](O)[C@H](n6cc([C@@H]7O[C@H](CO)[C@@H](n8cc(CO[C@@H]9O[C@H](CO)[C@H](O)[C@H](O)[C@H]9O)nn8)[C@H](O)[C@H]7O)nn6)O[C@@H]5CO)nn4)O[C@@H]3CO)nn2)[C@H](O)[C@@H](O)[C@H]1O | lecA (Pseudomonas aeruginosa, UniProt Q05097) | ITC | – | concentration not given | – | binding stoichiometry | 0.55 |
| CN(C)c1ccc(/N=N/c2ccc(S(=O)(=O)O)cc2)cc1 | bovine serum albumin | equilibrium dialysis | – | concentration not given | – | number of binding sites | 16 |
| C=CC(=O)N1CCC[C@@H](n2nc(-c3cn(C)c4ccccc34)c3c(N)ncnc32)C1 | EGFR | – | – | – | – | kinact | 0.11 ± 0.03 min⁻¹ |
| CC(C)C[C@H](NC(=O)[C@@H](Cc1c[nH]c2ccccc12)NC(=O)[C@H](Cc1ccc(O)cc1)NC(=O)[C@H](CO)NC(=O)[C@H](Cc1c[nH]c2ccccc12)NC(=O)[C@H](Cc1c[nH]cn1)NC(=O)[C@@H]1CCC(=O)N1)C(=O)N[C@@H](CCCNC(=N)N)C(=O)N1CCC[C@H]1C(=O)NCC(N)=O | GnRH receptor | – | cell membranes | – | – | binding affinity | ~2 nM |
| C=CC(=O)N1CCC[C@@H](n2nc(-c3ccc4ccccc4c3)c3c(N)ncnc32)C1 | EGFR | – | – | – | – | kinact/Ki | 0.21 ± 0.05 µM⁻¹ s⁻¹ |
| CN[C@H](CC(C)C)C(=O)N[C@H]1C(=O)N[C@@H](CC(N)=O)C(=O)N[C@H]2CN[C@H]3C(=O)N[C@H](C(=O)N[C@H](C(=O)O)c4cc(O)cc(O)c4-c4cc3ccc4O)[C@H](O)c3ccc(c(Cl)c3)Oc3cc2cc(c3O)Oc2ccc(cc2Cl)[C@H]1O | D-Ala-D-Lac | – | – | concentration not given | reference: vancomycin aglycon | binding affinity increase | 40 fold |
| Nc1ccccc1C(=O)N[C@@H](CO)C(=O)N[C@@H](CC(=O)O)C(=O)N[C@@H](CCCCNc1ccc([N+](=O)[O-])cc1[N+](=O)[O-])C(=O)N1CCC[C@H]1C(=O)O | Angiotensin-converting enzyme, N-domain (Mus musculus, UniProt P09470) | substrate | – | N-domain selective substrate | – | Km | 35 to 41 µM |

Excerpt of the above:
| Structure (SMILES) | target | test | system | setting | how to read | endpoint | value |
| --- | --- | --- | --- | --- | --- | --- | --- |
| O=c1[nH]c(SC[C@H](O)[C@H](O)[C@H](O)CO)c([N+](=O)[O-])c(=O)[nH]1 | 6,7-dimethyl-8-ribityllumazine synthase (rib4, Schizosaccharomyces pombe, UniProt Q9UUB1) | enzyme kinetics | – | pH 7.0 | lower = tighter substrate binding | Ks | 2.3 ± 0.2 µM |
